Assay results of several laboratories.
Compare with care: the assays were run in different laboratories. Several values in a cell are separate wells, animals, samples, runs or records. Numbers after ± are the reported error.

O=C(N1CCCC1)n1cc(-c2ccc(-c3ccccc3)cc2)nn1  SILAC ratio (mouse T cells; N-terminal labelling proteomics, refers to: TPI1 N-terminal peptides; 0.001 µM, 6 h; baseline: DMSO): 1
CC(=O)N[C@@H](CC(=O)O)C(=O)N[C@@H](CO)C(=O)N[C@@H](C)C(=O)N[C@@H](CC(=O)O)C(=O)COC(=O)c1c(C)cccc1C  cell lysis (THP-1 cells, LPS-primed; pyroptosis, LDH release; 25 µM, LPS 1 µg/mL, 4 h, together with: nigericin 5 µM, 2 h): 96.8%
COc1ccccc1CNC[C@@](O)(COCc1ccccc1)[C@@H]1CC[C@@H](C)C[C@H]1OCc1ccccc1  inhibition (A2780; cell growth or viability, MTT; 10 µM, 72 h): 99%
CC1(C)C[C@@H](Nc2cccc(-c3sc(C(=O)O)c(OCC(=O)O)c3Cl)c2)CCN1S(=O)(=O)Cc1cccc(NC(=O)CN2CCC(c3ccc4c(c3)oc(=O)n4C3CCC(=O)NC3=O)CC2)c1 (stereo partly shown)  fold change (B16-F10; HTRF, refers to: phospho-STAT1 Tyr701; 0.123 µM, together with: IFN-γ; baseline: DMSO): 3.13 and 3.01 and 2.81 and 2.72 and 2.74 and 2.92
CCN(CC)CC(=O)Nc1cccc(-n2cc(-c3ccc4ccc(-c5cn(-c6cccc(NC(=O)CN(CC)CC)c6)nn5)cc4c3)nn2)c1  fold regulation (RCC4; PCR angiogenesis array, refers to: FGF2; 5 x IC50, 2 h, normoxia; baseline: untreated): 1.19
CC1(C)OB(c2ccc(COC(=O)N(Cc3cccc(CN4CCCCC4)c3)[c-]3cccc3)cc2)OC1(C)C.[Fe+2].c1cc[cH-]c1  mRNA level (A2780; qPCR, refers to: CHOP; 1 µM, 24 h, unit not given; baseline: untreated): 199 ± 44.2
Cc1cc(Cl)cc(-c2ccnc3cc(CN4C(=O)C5C(C4=O)C5(C)C)sc23)c1C[C@@H]1CNCCO1 (stereo partly shown)  cells in G2/M phase (CHP-212 resistant cells (pooled); PI flow cytometry; 1 µM, 24 h): 15.5% and 9.34% and 14.2%
CCC(=CCc1c(O)cc2c(c1O)C(=O)CC(c1cc(OC)ccc1O)O2)CC (stereo not shown)  inhibition (HeLa; cell growth or viability, MTT; 100 µM, 48 h): 34.8%
Cc1ncsc1-c1ccc(C(C)NC(=O)C2CC(O)CN2C(=O)C(NC(=O)CCCCCCCCCCN2CCCC(Nc3ncc(Cl)c(Nc4ccccc4S(=O)(=O)C(C)C)n3)C2)C(C)(C)C)cc1 (stereo not shown)  log2 fold change (22Rv1; RNA-seq, refers to: ZSCAN30 mRNA; concentration not given; baseline: DMSO): -1.82
CNS(=O)(=O)Nc1nccc(Cc2c(C)c3ccc(Oc4ncccc4F)cc3oc2=O)c1F  IC50 (NCI-H841; cell viability; 7 days): > 1 µM
CC12CCCC(NC(=O)c3ccc(F)cc3)(C1)C1CC(C)(C)C1CC2 (stereo not shown)  inhibition (HT-29; cell growth or viability, CCK-8; 10 µM): < 50%
N#C[C@@H]1CCCN1C(=O)CNC(=O)c1ccnc2ccc(OCCCN3CCN(C(=O)CCc4ccc5c(c4)CN4CCN6CC(=O)[O][68Ga-]([O]C(=O)C4)([O]5)[O]c4ccc(CCC(=O)N5CCN(CCCOc7ccc8nccc(C(=O)NCC(=O)N9CCC[C@H]9C#N)c8c7)CC5)cc4C6)CC3)cc12  internalized fraction (HT1080 cells expressing human FAP; 90 min, 37 °C): 81.7 ± 1.7%
CN1CCCNC(=O)c2cccc(c2)C(=O)NCCCN(C)CCCNc2cccc3c2C(=O)c2cccc(c2C3=O)NCCC1  log2 fold change (SAS; RNA-Seq, refers to: SEC31A mRNA; 1 µM, 6 h; baseline: untreated cells): -0.7
Cc1ccncc1.[Cl-].[Cl-].[Ru+2].c1cc(-c2ccc3cccnc3n2)nc(-c2ccc3cccnc3n2)c1.c1ccc2cc3nc4c5cccnc5c5ncccc5c4nc3cc2c1  phototherapeutic index (SK-MEL-28; visible light, oxygen 18.5%; baseline: dark EC50 over light EC50): 117
COc1ccc(COC[C@](O)(CNCc2ccc(F)cc2)[C@@H]2CC[C@@H](C)C[C@H]2OCc2ccc(OC)cc2)cc1  inhibition (A2780; cell growth or viability, MTT; 10 µM, 72 h): 93.9%
O=S(=O)(Nc1ccc(OC(F)(F)F)cc1)N1CCCC(C2c3ccc(F)cc3CCc3cc(F)ccc32)C1 (stereo not shown)  cell migration (D425; Transwell; 1.5 µM, 24 h): decreased
CC(C)S(=O)(=O)NC12CCCC(C)(CCC3C1CC3(C)C)C2 (stereo not shown)  inhibition (HT-29; cell growth or viability, CCK-8; 10 µM): < 50%
CCC(=CCc1c(O)cc2c(c1O)C(=O)CC(c1c(O)cccc1OC)O2)CC (stereo not shown)  inhibition (HeLa; cell growth or viability, MTT; 0.781 µM, 48 h): 0.771%
O=C(C[Se]C(=O)C12CC3CC(CC(C3)C1)C2)Nc1cccc(C(F)(F)F)c1  mean growth percent (NCI60 leukemia subpanel; cell growth; 10 µM, 48 h, one-dose): -7.4%
